Experimental data of several laboratories.
Parts stem from different laboratories: compare values within a part only.
Chain of UniProt Q5XXA6 (whole entry, unmodified, looked up): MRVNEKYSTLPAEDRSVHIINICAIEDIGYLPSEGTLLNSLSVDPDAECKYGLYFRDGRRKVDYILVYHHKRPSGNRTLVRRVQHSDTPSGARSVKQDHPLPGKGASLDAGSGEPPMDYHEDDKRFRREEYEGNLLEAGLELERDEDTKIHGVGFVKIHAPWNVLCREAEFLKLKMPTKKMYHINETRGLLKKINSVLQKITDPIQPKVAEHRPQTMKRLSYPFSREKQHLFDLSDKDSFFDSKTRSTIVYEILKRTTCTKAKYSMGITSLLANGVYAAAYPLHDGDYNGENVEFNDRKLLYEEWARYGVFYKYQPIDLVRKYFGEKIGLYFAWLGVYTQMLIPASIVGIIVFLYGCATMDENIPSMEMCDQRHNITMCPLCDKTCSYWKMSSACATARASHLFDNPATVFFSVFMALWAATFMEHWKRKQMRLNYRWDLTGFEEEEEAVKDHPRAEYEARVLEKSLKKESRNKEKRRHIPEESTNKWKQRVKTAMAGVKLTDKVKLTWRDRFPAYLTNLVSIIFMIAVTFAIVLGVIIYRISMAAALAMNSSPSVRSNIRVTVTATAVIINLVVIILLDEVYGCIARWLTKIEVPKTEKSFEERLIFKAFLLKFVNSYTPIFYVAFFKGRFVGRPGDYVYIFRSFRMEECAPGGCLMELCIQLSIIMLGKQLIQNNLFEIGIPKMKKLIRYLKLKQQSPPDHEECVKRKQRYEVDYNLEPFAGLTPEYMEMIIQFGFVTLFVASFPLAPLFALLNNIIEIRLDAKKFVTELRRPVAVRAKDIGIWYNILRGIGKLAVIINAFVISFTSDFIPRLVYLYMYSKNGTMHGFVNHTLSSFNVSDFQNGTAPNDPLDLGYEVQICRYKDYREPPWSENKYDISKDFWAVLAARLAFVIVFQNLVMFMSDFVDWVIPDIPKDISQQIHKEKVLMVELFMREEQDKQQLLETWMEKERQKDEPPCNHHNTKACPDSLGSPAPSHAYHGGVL
Chain of UniProt P50750 (whole entry, looked up): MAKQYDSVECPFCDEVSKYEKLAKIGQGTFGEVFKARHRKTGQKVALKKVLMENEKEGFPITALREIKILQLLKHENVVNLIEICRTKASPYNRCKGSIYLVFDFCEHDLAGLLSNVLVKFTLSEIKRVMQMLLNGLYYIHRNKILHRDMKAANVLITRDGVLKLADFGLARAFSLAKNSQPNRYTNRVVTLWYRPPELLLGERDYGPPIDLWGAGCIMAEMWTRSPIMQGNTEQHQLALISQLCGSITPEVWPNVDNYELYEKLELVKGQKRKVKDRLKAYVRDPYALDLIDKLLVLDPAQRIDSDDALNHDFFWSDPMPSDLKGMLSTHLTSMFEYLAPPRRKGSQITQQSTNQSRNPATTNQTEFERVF
Chain of UniProt Q16659 (whole entry, looked up): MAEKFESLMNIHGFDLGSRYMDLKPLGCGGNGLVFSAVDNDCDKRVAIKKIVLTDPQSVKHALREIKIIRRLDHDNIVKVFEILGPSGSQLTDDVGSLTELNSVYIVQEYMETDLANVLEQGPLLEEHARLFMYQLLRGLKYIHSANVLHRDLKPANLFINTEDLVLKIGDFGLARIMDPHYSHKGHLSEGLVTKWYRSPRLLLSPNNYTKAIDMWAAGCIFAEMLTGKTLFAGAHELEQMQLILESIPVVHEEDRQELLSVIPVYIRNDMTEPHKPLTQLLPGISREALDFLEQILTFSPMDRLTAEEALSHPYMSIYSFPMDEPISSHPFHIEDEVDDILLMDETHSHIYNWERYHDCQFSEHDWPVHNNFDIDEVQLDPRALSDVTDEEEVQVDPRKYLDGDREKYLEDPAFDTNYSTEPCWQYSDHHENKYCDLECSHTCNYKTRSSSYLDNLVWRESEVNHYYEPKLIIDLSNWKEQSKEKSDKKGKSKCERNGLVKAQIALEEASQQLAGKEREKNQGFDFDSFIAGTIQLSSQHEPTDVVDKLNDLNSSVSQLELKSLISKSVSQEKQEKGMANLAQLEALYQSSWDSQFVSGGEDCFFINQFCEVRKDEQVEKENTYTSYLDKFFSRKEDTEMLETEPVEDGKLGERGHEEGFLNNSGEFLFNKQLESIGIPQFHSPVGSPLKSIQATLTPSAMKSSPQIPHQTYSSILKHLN
Chain of UniProt P07949 (whole entry, unmodified, looked up): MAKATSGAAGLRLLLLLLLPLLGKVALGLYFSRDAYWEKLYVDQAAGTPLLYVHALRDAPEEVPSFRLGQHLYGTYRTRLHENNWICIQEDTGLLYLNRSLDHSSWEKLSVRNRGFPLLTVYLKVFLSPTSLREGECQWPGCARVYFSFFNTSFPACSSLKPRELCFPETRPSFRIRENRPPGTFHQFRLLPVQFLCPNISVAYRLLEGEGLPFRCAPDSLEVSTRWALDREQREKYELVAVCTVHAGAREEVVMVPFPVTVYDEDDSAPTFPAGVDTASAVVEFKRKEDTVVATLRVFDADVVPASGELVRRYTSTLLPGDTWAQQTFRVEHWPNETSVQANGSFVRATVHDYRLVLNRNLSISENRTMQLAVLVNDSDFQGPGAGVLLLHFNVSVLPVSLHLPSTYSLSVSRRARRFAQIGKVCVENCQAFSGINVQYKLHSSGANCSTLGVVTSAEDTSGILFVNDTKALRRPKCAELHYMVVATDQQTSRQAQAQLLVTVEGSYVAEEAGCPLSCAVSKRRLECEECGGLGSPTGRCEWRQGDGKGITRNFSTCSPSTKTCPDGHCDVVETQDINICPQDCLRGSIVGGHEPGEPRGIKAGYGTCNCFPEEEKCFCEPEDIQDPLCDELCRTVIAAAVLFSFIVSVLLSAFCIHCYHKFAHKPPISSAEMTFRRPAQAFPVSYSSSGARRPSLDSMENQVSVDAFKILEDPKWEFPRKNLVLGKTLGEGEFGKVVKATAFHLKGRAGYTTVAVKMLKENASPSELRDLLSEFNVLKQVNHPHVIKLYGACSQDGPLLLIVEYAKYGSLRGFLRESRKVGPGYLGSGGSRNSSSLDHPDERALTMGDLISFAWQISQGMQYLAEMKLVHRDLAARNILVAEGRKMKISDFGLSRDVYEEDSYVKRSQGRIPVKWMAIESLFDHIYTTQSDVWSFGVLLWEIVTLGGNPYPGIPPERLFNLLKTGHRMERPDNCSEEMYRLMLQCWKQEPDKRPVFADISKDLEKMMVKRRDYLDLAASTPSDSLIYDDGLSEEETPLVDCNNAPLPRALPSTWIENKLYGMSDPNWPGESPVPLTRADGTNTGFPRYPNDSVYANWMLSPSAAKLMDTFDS
Chain of UniProt Q13705 (whole entry, looked up): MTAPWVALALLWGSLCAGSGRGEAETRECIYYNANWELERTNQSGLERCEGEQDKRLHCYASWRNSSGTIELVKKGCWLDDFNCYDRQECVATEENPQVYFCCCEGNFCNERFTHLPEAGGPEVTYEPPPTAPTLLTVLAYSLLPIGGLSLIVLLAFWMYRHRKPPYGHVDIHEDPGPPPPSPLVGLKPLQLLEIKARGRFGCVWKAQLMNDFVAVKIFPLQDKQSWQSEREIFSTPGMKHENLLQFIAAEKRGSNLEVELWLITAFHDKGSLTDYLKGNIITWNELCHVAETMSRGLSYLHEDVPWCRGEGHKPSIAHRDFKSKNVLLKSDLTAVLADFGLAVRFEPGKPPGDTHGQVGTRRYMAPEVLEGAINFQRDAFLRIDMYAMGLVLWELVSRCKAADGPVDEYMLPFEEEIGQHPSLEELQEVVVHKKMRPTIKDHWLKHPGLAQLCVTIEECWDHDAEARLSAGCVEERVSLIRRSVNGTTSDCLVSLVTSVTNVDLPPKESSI
Chain of UniProt P27361 (whole entry, looked up): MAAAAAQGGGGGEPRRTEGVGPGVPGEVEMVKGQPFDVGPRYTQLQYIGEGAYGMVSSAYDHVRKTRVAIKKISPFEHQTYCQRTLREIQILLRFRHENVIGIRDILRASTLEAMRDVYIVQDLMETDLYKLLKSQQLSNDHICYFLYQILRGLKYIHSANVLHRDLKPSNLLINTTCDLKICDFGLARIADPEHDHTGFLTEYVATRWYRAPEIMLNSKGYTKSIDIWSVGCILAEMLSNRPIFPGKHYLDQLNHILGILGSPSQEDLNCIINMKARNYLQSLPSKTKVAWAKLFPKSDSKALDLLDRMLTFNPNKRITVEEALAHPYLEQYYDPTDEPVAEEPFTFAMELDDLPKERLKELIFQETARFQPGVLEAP
Chain of UniProt P11802 (whole entry, looked up): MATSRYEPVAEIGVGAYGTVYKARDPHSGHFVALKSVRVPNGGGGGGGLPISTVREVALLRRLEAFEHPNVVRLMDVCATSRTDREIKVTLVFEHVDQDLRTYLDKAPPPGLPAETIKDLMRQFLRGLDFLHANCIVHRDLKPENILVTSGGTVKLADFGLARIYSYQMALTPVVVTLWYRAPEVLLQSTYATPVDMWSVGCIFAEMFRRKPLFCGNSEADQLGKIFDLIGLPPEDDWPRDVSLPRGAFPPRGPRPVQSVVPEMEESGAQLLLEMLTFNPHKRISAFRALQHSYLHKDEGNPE

Series 1 — Compound: C=CCc1ccc(O)c(-c2ccc(O)c(CC=C)c2)c1; effect on: chloride current; technique: whole-cell voltage clamp
target | action | concentration | notes | IC50 [µM]
Anoctamin-1 (ANO1, Homo sapiens, UniProt Q5XXA6, del476-501/E650A) | – | – | membrane voltage 20 mV | 3.21
Anoctamin-1 (ANO1, Homo sapiens, UniProt Q5XXA6, del476-501/F628Y) | inhibitor | 20 mV holding voltage | – | 27.5
Anoctamin-1 (ANO1, Homo sapiens, UniProt Q5XXA6, del476-501/F807A) | – | – | membrane voltage 80 mV | 17.9

Series 2 — species: human; medium: microsomes or S9; concentration: 2 µM; time: 0.5 h
Compound | remaining compound [%]
CCCn1nc(C)c(-c2cncn2CC(c2ccccc2Cl)N(C)C)c1C (stereo not shown) | 43.1
O=C(OC1CCc2ccccc2C1=O)c1ccccc1O (stereo not shown) | 88.2
CCOC(=O)COc1cc(Br)c(C#N)cc1OCC | 54.5
Cc1c(C(=O)Cn2nnn(-c3ccccc3)c2=O)sc2ccccc12 | 97.2

Series 3 — technique: protein-binding microarray; form: double-stranded DNA, one strand shown; medium: in vitro; concentration: 2540 nM top; notes: 60-bp whole probe; together with: salmon DNA 0.4 mg/ml; relative to: random background probes; reading: higher = stronger binding; all sequences stand within: GCCTAGCAC … GTCTTGATTCGCTTGACGCTGCTG
Target: Interferon regulatory factor 3, full length, phosphomimetic (IRF3, Homo sapiens, UniProt Q14653, residues 1-427, S386D/S396D/S398D/S402D/T404D/S405D)
Residues (chain): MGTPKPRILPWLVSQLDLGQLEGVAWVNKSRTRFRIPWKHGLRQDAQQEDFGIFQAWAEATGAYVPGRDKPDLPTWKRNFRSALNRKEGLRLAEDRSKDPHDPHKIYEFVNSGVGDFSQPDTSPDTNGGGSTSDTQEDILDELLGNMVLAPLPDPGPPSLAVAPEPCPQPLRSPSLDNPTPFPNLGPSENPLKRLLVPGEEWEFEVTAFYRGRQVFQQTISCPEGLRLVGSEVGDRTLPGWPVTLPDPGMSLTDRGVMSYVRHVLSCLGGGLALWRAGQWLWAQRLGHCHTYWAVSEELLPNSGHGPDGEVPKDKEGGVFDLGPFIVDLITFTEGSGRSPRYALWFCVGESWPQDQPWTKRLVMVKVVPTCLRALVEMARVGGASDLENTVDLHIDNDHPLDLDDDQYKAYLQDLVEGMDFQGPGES
Oligonucleotide | fitted relative affinity
TTAGGTATGGGTTTCGGTTAGTGCTAG | 3.18 z-score
GACGGACAGGGTTTCGGGACGTGCTAG | 1.03 z-score
TGAGGTCTCCTACTGCTTTAGTGCTAG | -0.00629 z-score
TTACGACTGGGTATCGGTTAGTGCTAG | 0.426 z-score
TCAGCTTTCCAATTCTCACTGTGCTAG | 4.34 z-score
GACGGTTTCGGTTTCGGGATGTGCTAG | 10.4 z-score
GACGGTATCGATTATCGGGACGTGCTA | 2.15 z-score
TTAGGTTTCGGTTCTGGTTAGTGCTAG | 10.9 z-score

Series 4 — effect on: cell-free assay; technique: competition with immobilised ligand; concentration: 1 µM
SMILES: C[C@H](NC(=O)c1cnc2n1[C@](C)(Cc1ccc(C#N)cc1)C(=O)N2c1cc(Cl)c(F)c(Cl)c1)C(=O)NC1(c2ccccn2)CC1
target | remaining binding [%]
Protein-tyrosine kinase 2-beta (PTK2B, Homo sapiens, UniProt Q14289) | 100
Mitogen-activated protein kinase kinase kinase 5 (MAP3K5, Homo sapiens, UniProt Q99683) | 92
Proto-oncogene tyrosine-protein kinase receptor Ret (RET, Homo sapiens, UniProt P07949, V804M) | 100
Tyrosine-protein kinase SYK (SYK, Homo sapiens, UniProt P43405) | 100
Insulin-like growth factor 1 receptor (IGF1R, Homo sapiens, UniProt P08069) | 99
Activin receptor type-2B (ACVR2B, Homo sapiens, UniProt Q13705) | 100
Serine/threonine-protein kinase 35 (STK35, Homo sapiens, UniProt Q8TDR2) | 100
Cyclin-dependent kinase 4 (CDK4, Homo sapiens, UniProt P11802) | 100
Mitogen-activated protein kinase 3 (MAPK3, Homo sapiens, UniProt P27361) | 91
Mitogen-activated protein kinase 6 (MAPK6, Homo sapiens, UniProt Q16659) | 100
Mitogen-activated protein kinase kinase kinase kinase 1 (MAP4K1, Homo sapiens, UniProt Q92918) | 100
Tyrosine-protein kinase JAK1, JH2 (JAK1, Homo sapiens, UniProt P23458) | 100
Cyclin-dependent kinase 9 (CDK9, Homo sapiens, UniProt P50750) | 100
Tyrosine-protein kinase Mer (MERTK, Homo sapiens, UniProt Q12866) | 99
Receptor-type tyrosine-protein kinase FLT3 (FLT3, Homo sapiens, UniProt P36888, N841I) | 78
LIM domain kinase 1 (LIMK1, Homo sapiens, UniProt P53667) | 100

Series 5 — action: antagonist
Target: Beta-1 adrenergic receptor (ADRB1, Homo sapiens, UniProt P08588)
Chain of UniProt P08588 (whole entry, looked up): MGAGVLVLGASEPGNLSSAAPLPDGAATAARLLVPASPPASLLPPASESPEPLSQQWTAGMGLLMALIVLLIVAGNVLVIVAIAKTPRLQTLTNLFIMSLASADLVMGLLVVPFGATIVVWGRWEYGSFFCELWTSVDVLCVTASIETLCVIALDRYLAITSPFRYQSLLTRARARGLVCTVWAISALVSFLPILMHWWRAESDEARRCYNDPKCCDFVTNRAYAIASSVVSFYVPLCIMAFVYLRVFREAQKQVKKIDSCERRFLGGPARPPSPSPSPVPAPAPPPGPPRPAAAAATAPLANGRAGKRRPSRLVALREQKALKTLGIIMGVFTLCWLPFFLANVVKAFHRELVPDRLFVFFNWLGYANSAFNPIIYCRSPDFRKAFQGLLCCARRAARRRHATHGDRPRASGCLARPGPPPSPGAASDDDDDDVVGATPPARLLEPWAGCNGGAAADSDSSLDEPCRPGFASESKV
Compound | IC50 [µM]
Cc1cc(-c2cc(-c3ccc(F)cc3)nc3c(C)noc23)ccn1 | ≥ 100
CN1CCN(Cc2cccc(OCC(O)CN3CCc4ccccc4C3)c2)CC1 (stereo not shown) | ≥ 100
CC(C)Cc1cc(CC2(NCc3ccc(N(C)C)cc3)COC2)no1 | ≥ 100

For quick reference, copied from above (series 1):
target | action | concentration | notes | IC50 [µM]
Anoctamin-1 (ANO1, Homo sapiens, UniProt Q5XXA6, del476-501/E650A) | – | – | membrane voltage 20 mV | 3.21
Anoctamin-1 (ANO1, Homo sapiens, UniProt Q5XXA6, del476-501/F628Y) | inhibitor | 20 mV holding voltage | – | 27.5
Anoctamin-1 (ANO1, Homo sapiens, UniProt Q5XXA6, del476-501/F807A) | – | – | membrane voltage 80 mV | 17.9
